Results of several laboratories.
Each numbered part is a random draw from the data of one study; scales do not carry over between parts. Changes are numbered by the printed parent chain.

Study 1 — method: DHFR PCA, deep sequencing; sample: yeast; together with: (+)-ABA 200 µM; relative to: wild-type fitted maximum; reading: higher = stronger binding; measurement: relative binding score
Target: ABI1, truncated, D143A, DHFR fusion (Arabidopsis thaliana)
Notes: methotrexate growth selection, single substitutions
Starting sequence: PYL1, truncated, DHFR fusion (Arabidopsis thaliana); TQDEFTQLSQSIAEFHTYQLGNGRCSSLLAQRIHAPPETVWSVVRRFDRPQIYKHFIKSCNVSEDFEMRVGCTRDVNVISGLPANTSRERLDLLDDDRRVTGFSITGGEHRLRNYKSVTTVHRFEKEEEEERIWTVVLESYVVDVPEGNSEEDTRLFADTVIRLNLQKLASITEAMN
E89M: -5.32%
L112T: 1.37%
Q51A: 74.2%
D3S: 96.7%
K54M: 12.9%
D92K: -7.75%
P36G: 84.2%
I57N: -0.283%
S150V: 78.4%
R132C: 106%
P146E: 20.5%
E14L: 90.5%
A13W: 80.1%
W134L: 104%
H34R: 87.1%

Study 2 — method: protein-binding microarray; form: double-stranded DNA, one strand shown; sample: in vitro; tested at: 250 nM; notes: 60-bp whole probe; together with: salmon DNA 0.4 mg/ml; relative to: random background probes; reading: higher = stronger binding; measurement: log fluorescence; constant ends, left off below: GCCTAGCAC … GTCTTGATTCGCTTGACGCTGCTG
Target: Interferon regulatory factor 5, full length, phosphomimetic (IRF5, Homo sapiens, UniProt Q13568-2, residues 1-514, K96S/S451D/S453D/S456D/S462D)
CTAGGTTCCGGTTTCGGTTAGTGCTAG: 8.61 z-score
TACGGTATCGGTATCGGGACGTGCTAG: 6.44 z-score
GACGATTTCGGGTCTCGAGACGTGCTA: 3.19 z-score
TTAGGTTCCCTTTTCCTTAAGTGCTAG: 0.723 z-score
GACGATTTCAGTATCGACACGTGCTAG: 4.41 z-score
ACCCGTACTGGGTCTGGATCGTGCTAG: -0.382 z-score
GGGCACGTTGTTTAACTTCTGTGCTAG: -0.592 z-score
CTTCTTTTTTTTCTTTAAAAGTGCTAG: 1.45 z-score
TTAGGTATTCTTTTCCTTTAGTGCTAG: 0.56 z-score
TCAGTTTTCATTATTGCACTGTGCTAG: 2.68 z-score
TTAGGTATCGGGTTTTGGTTAGTGCTA: 3.92 z-score
TTAGATAGCAGACTGGATTAGTGCTAG: -0.104 z-score
AGAGCCATCAATATCTGCAAGTGCTAG: 0.241 z-score
GACGGTTTCGCTTCCGGGACGTGCTAG: 5.75 z-score
TTAGTTTTCGGTATCGGTTAGTGCTAG: 10.7 z-score
GACGGACTGGGTTTCAGGACGTGCTAG: 0.126 z-score
TTAGGTCTCCTTATACTTTAGTGCTAG: -0.0777 z-score
GATGATTTCGGGACTGGAGACGTGCTA: 2.35 z-score
GACGGTTTCGGGAATGGGGACGTGCTA: 5.27 z-score

Study 3 — target: CCND3, cyclin fold, Cln2 fusion (human); method: yeast growth competition, sequencing; sample: yeast; notes: weak parent motif; relative to: not given; reading: higher = stronger binding; measurement: normalised enrichment score
Starting sequence: TICRR docking peptide (human); TKVRRNLFNQELL
L12A: 0.0448
L13A: 0.118
K2A: 0.265
R5K: 0.333
E11A: 0.295
N6A: 0.08
V3A: -0.0278

Study 4 — method: aptamer microarray, sandwich; form: DNA with 2'F-ANA; sample: in vitro; tested at: 200 nM; together with: Cy3 exosite-II aptamer, 400 nM; reading: higher = stronger binding; measurement: mean fluorescence intensity; oligonucleotide: GGTTGGTGTGGTTGG
Target: Prothrombin, mature alpha-thrombin (F2, Homo sapiens, UniProt P00734)
Notes: whole 15-mer aptamer, many near background
2'F-ANA at 1 4 5 9 13 14 15: 57.2 a.u.
2'F-ANA at 2 3 6 7 8 12 14 15: 491 a.u.
2'F-ANA at 1 2 5 8 9 10 12 15: 52.1 a.u.
2'F-ANA at 2 3 6 7 11 13: 591 a.u.
2'F-ANA at 1 3 4 5 6 9 12 14: 46.7 a.u.
2'F-ANA at 1 3 7 8 12 13 14 15: 146 a.u.
2'F-ANA at 3 4 6 9 11 13 15: 375 a.u.
2'F-ANA at 2 3 6 8 9 10 11 12 15: 434 a.u.
2'F-ANA at 1 5 6 9 11: 55.1 a.u.
2'F-ANA at 1 2 4 6 7 8 9 11 15: 99.7 a.u.
2'F-ANA at 1 4 5 8 10 12 13 14: 46.3 a.u.
2'F-ANA at 4 6 8 9 12 13 14 15: 85.1 a.u.
2'F-ANA at 1 5 7 9 10: 46.6 a.u.
2'F-ANA at 1 2 4 6 8 11 13 15: 83.2 a.u.
2'F-ANA at 1 3 5 11 13 14 15: 43.3 a.u.
2'F-ANA at 3 5 8 12 13 14: 62.4 a.u.

Mixed results
PhoQ, residues 284 288 289 292 302 303 SASVAL — fold induction (PhoP, residues 12 14 15 18 19 VHSCL (Escherichia coli, UniProt P23836); Sort-seq, measured: YFP reporter; E. coli; PhoQ-PhoP variant library, together with: 10 µM Mg2+; relative to: high Mg2+ state, higher = stronger signaling): 10.4

For quick reference, copied from above (study 2):
TTAGATAGCAGACTGGATTAGTGCTAG: -0.104 z-score
ACCCGTACTGGGTCTGGATCGTGCTAG: -0.382 z-score
TTAGGTATTCTTTTCCTTTAGTGCTAG: 0.56 z-score
GACGGTTTCGGGAATGGGGACGTGCTA: 5.27 z-score
